Experimental data of several laboratories.
± gives the spread as reported.

SMILES | test | system | setting | how to read | measurement | value
CN1C(=O)[C@@H](Cc2ccc(O)c(I)c2)NC(=O)CNC(=O)[C@H](Cc2ccc3ccccc3c2)NC(=O)[C@H](CCCNC(=N)N)NC(=O)[C@H]1CCCNC(=O)c1ccc(CNC(=O)CN2CCN(CC(=O)O)CCN(CC(=O)O)CCN(CC(=O)O)CC2)cc1 [lutetium-177 labelled] | 2 | human, extrapolated from mouse, kidneys | – | – | total absorbed dose | 0.058 mGy/MBq
C[C@]12C[C@H](c3ccc(-c4ccc(C(=O)O)cc4)cc3)C3=C4CCC(=O)C=C4CC[C@H]3[C@@H]1CC[C@@]2(O)C(F)(F)C(F)(F)F | – | human, plasma | – | – | unbound fraction | 0.006
O=C(Cc1ccc(-c2ccc(OCCN3CCOCC3)cc2)cn1)NCc1ccc(F)cc1 | – | ICR mouse | intravenous, 2 mg/kg | – | AUC(0-t) | 840 ± 110 ng·h/mL
N=C(N)NCCC[C@@H]1NC(=O)[C@H](Cc2c[nH]c3ccccc23)NC(=O)[C@@H](CC2CCCCC2)NC(=O)[C@@H]2CCCN2C(=O)[C@@H](NC(=O)CCc2ccccc2)CCCNC1=O | – | C57BL/6J mouse, plasma | oral, 1 mg/kg, single dose | – | AUC | 785 ng·h/mL
C[C@H](CN(C)Cc1ccccc1)NC(=O)c1ccc(-c2noc(C(F)(F)[18F])n2)cc1 | PET | Sprague-Dawley rat, female, brain and muscle | intravenous, 1 min | reference: brain SUV over muscle SUV | brain-to-muscle ratio | 7.4 ± 0.62
COc1cc2c(cc1OC)CN(CCCCn1ccc3cc(OCC[18F])ccc31)C2 | – | male ICR mice | intravenous, 60 min post-injection | – | blood uptake | 1.46 ± 0.12 %ID/g
C[C@]12CC[C@@H]3c4ccc(OCC(=O)N[C@@H](CCCCNC(=O)CN5CCN(CC(=O)[O-])CCN(CC(=O)[O-])CCN(CC(=O)[O-])CC5)C(=O)O)cc4CC[C@H]3[C@@H]1CCC2=O.[68Ga+3] | – | female nude mice, MCF7 xenograft, MCF7 tumour | dose not given, 45 min post-injection | – | radioactivity uptake | 3.18 ± 0.76 %ID/g
NS(=O)(=O)c1ccc(N2N=C(C(F)(F)F)CC2c2ccc(F)cc2F)cc1 (stereo not shown) | population PK model, NONMEM | Beagle dog | – | – | V/F peripheral, bootstrap median | 27.7 L
[11CH3]Oc1ccc(Cc2cn[nH]c2)nc1-c1cccc([N+](=O)[O-])c1 | – | human, arterial plasma | dose not given, 120 min | – | parent fraction of radioactivity | ~5%
CC(C)C[C@H](NC(=O)[C@H](CC(C)C)NC(=O)[C@@H](NC(=O)[C@H](Cc1ccccc1)NC(=O)[C@@H](Cc1c[nH]c2ccccc12)NC(=O)[C@@H](N)CCCCN)[C@@H](c1ccccc1)c1c[nH]c2ccccc12)C(N)=O | RP-HPLC Kinetex Biphenyl | – | acetonitrile/water TFA gradient | – | HPLC retention | 43.1 %B
CCCCCCCCCCCCCCCC(=O)N[C@@H](CCCCN)C(=O)N[C@@H](CCCCN)C(=O)N[C@@H](CO)C(=O)N[C@@H](CCCNC(=N)N)C(=O)N[C@@H](C)C(=O)N[C@@H](CC(C)C)C(=O)N[C@@H](Cc1ccccc1)C(N)=O | – | CAD/ACS patients undergoing catheterization | – | reference: placebo | laboratory, vital signs, ECG | no effect
NC[C@@H](C(=O)Nc1ccc(-c2cn[nH]c2)cc1)c1ccccc1 | OECD 405, measured: Iris | New Zealand White rabbit | topical, 0.1 %, 24 h, day 2 | direction not given | ocular irritation score | 0
NCCCNc1nc2cc(Cl)ccc2n1Cc1ccccc1 | metabolic stability | human, liver microsomes | 0.1 µM, 30 min, pH 7.4 | – | compound remaining | 97%
CCCC[C@H](NC(=O)CNC(=O)CNC(=O)CN1CCN(CC(=O)O)CCN(CC(=O)O)CCN(CC(=O)O)CC1)C(=O)N[C@H]1CC(=O)NCCCC[C@@H](C(N)=O)NC(=O)[C@H](Cc2c[nH]c3ccccc23)NC(=O)[C@H](CCCNC(=N)N)NC(=O)[C@@H](Cc2ccccc2)NC(=O)[C@H](Cc2c[nH]cn2)NC1=O [copper-64 labelled] | – | female C57 mouse, B16/F1 melanoma, bone | intravenous, 0.037 MBq, 4 h | – | tissue uptake | 1.95 ± 0.53 %ID/g
CCC/C(=C\C1=C(OC)C(=O)c2ccccc2C1=O)C(=O)NOC | – | human plasma | 1 µM, 37 °C | – | t1/2 | 4.73 h
C[C@H](Oc1cc(-c2cnn(C3CCN(CC[18F])CC3)c2)cnc1N)c1c(Cl)ccc(F)c1Cl | PET imaging | nude mouse, kidney | iv, 60 min post injection | – | tracer uptake | 2.2 ± 0.7 %ID/cc
